Assay results collected from several papers.
Numbered parts are unrelated; each lists some results of a single study. Changes are numbered by the printed parent chain.
UniProt P10721, sequence (whole entry, unmodified, looked up): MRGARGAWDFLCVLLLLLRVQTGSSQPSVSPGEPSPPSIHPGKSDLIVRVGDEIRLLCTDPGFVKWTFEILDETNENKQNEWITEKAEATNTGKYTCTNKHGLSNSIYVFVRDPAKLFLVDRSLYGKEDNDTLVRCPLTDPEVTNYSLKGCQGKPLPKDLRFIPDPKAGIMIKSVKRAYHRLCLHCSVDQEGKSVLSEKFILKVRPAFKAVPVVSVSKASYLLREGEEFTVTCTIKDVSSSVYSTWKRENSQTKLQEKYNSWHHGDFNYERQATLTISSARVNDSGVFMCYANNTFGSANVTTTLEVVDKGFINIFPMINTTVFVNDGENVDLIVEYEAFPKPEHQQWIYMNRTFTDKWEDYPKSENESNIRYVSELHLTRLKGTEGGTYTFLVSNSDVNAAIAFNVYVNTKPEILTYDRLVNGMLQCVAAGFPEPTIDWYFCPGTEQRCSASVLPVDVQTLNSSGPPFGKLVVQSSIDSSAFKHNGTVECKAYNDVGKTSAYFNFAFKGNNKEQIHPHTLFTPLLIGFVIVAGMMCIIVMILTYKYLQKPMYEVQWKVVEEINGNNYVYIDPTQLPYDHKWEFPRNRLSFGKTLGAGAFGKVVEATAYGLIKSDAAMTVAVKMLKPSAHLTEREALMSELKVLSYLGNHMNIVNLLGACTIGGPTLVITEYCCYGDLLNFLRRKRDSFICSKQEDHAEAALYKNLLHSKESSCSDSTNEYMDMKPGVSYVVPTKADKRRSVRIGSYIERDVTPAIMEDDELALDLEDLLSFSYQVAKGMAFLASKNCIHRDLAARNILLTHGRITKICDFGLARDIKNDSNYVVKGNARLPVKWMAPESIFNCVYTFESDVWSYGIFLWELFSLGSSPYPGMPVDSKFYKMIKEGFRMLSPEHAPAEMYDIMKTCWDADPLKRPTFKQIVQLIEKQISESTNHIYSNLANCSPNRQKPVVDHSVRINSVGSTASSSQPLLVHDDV
UniProt P51956, sequence (whole entry, looked up): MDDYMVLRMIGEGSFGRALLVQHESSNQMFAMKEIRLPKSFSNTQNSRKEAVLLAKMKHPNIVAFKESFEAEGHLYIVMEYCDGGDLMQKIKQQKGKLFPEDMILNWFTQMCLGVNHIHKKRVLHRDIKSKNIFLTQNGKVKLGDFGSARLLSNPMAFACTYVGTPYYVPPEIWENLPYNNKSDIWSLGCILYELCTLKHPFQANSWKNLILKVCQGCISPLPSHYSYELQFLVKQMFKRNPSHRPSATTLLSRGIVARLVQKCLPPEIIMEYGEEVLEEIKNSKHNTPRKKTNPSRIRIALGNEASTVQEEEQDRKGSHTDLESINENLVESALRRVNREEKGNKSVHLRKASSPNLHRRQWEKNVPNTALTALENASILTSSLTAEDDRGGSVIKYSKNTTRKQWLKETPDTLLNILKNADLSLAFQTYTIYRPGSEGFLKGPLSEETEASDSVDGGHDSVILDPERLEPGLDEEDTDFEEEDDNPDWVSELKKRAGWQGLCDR
UniProt Q8IYT8, sequence (whole entry, looked up): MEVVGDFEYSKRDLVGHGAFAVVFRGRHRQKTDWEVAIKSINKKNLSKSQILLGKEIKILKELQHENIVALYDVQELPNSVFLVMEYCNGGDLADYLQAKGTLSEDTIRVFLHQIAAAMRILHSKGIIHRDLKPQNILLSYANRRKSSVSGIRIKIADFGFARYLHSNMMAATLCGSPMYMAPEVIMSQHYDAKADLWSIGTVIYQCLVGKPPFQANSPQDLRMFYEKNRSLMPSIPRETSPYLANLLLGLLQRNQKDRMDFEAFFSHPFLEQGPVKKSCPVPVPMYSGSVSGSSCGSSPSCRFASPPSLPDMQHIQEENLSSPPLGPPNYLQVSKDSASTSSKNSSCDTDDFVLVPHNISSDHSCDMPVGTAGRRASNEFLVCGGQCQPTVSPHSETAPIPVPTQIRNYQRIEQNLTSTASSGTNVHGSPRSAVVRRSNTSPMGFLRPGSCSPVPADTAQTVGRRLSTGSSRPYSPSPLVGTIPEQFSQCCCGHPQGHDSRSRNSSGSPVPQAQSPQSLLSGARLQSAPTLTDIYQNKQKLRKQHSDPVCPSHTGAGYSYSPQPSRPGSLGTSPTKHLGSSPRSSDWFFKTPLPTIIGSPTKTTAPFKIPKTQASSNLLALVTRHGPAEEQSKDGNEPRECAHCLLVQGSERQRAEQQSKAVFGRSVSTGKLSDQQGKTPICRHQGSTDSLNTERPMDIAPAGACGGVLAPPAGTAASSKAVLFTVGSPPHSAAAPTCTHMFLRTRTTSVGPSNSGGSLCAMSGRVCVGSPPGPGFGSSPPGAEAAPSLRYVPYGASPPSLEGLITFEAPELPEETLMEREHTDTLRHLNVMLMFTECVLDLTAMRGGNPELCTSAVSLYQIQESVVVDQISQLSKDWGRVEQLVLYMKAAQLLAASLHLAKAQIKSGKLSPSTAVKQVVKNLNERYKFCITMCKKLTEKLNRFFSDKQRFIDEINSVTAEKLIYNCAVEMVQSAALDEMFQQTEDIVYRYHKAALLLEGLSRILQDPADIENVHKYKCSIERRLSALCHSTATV
UniProt P68400, sequence (whole entry, looked up): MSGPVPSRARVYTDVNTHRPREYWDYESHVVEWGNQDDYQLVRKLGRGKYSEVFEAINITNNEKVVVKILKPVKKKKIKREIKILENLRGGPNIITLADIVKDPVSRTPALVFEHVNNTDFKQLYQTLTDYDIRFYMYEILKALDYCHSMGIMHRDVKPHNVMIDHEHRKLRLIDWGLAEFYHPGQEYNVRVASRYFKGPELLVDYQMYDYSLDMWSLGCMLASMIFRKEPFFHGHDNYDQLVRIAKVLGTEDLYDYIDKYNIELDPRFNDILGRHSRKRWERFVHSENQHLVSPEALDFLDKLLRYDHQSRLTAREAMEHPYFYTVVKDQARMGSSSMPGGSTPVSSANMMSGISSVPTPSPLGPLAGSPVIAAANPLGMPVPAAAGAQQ
UniProt Q14004, sequence (whole entry, looked up): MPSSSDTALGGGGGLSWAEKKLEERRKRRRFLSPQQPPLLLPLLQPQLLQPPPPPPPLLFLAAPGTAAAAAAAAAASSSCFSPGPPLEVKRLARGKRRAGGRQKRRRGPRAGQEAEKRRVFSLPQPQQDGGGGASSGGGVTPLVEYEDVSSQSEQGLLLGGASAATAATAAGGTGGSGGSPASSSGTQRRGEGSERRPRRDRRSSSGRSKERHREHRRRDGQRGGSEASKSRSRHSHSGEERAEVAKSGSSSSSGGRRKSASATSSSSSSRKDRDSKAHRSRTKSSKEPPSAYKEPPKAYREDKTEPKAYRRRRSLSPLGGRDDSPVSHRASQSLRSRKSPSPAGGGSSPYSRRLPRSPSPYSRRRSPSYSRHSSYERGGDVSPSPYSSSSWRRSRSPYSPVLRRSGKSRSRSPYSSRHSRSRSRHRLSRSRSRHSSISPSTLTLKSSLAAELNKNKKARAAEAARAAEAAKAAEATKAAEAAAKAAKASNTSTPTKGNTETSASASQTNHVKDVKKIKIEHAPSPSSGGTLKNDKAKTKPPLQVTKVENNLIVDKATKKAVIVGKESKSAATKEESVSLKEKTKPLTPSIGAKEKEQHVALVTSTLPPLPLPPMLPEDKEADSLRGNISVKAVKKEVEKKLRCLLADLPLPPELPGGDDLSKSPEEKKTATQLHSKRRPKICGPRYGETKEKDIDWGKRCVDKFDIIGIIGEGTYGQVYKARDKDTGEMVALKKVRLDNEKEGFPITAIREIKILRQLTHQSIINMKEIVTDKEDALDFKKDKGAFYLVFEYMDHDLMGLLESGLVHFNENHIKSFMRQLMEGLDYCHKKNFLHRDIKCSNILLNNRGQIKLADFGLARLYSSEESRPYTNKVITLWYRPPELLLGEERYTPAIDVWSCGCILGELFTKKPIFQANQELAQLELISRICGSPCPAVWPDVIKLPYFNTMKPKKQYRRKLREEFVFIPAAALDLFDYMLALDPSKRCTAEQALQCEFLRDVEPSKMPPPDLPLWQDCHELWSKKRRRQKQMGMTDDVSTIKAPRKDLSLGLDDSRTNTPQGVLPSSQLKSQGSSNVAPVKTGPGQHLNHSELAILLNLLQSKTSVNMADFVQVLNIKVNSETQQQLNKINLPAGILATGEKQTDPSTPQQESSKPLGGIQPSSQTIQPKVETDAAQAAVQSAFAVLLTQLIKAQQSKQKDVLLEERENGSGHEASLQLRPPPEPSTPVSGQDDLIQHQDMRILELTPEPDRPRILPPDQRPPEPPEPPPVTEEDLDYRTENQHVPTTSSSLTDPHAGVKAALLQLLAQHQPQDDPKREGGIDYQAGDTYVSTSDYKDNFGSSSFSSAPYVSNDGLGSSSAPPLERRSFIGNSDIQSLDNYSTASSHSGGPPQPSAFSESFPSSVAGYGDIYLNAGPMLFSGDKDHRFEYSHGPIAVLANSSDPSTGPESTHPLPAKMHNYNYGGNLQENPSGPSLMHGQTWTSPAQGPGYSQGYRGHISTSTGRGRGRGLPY
UniProt O00238, sequence (whole entry, looked up): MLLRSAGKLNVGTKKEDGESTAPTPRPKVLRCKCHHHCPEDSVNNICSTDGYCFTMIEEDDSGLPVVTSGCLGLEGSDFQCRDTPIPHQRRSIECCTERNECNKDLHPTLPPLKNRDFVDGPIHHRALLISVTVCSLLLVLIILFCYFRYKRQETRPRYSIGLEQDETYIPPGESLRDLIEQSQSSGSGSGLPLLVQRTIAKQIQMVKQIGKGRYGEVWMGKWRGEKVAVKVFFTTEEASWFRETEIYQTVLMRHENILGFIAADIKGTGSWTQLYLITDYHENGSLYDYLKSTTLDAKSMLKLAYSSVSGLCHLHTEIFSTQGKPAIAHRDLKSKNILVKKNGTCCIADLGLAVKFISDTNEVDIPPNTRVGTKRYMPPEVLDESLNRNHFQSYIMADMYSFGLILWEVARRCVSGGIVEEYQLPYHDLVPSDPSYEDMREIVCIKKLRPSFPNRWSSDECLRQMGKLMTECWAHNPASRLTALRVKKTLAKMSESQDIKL

Sample 1 — target: CCNF, cyclin fold, Cln2 fusion (human); method: yeast growth competition, sequencing; matrix: yeast; notes: strong parent motif; baseline: not given; reading: higher = stronger binding; starting sequence: viral docking peptide; PTARRRLLHDLDT
| Variant | normalised enrichment score |
| --- | --- |
| R5K | 1.03 |
| T13A | 3.45 |
| R5K H9F | 8.15 |
| R5A | 0.561 |
| T2A | 3.17 |

Sample 2 — concentration: 1 µM
Compound: N#CC1(c2ccccn2)CCN(Cc2cc(C(=O)O)c(=O)n3ccccc23)CC1
| target | assay | remaining binding [%] |
| --- | --- | --- |
| Fibroblast growth factor receptor 3 (FGFR3, Homo sapiens, UniProt P22607, G697C) | cell-free assay, competition with immobilised ligand | 100 |
| Tyrosine-protein kinase Fgr (FGR, Homo sapiens, UniProt P09769) | cell-free assay, competition with immobilised ligand | 94 |
| Serine/threonine-protein kinase SIK1 (SIK1, Homo sapiens, UniProt P57059) | competition binding | 92 |
| Insulin-like growth factor 1 receptor (IGF1R, Homo sapiens, UniProt P08069) | cell-free assay, competition with immobilised ligand | 89 |
| Cyclin-dependent kinase 13 (CDK13, Homo sapiens, UniProt Q14004) | cell-free assay, competition with immobilised ligand | 98 |
| Bone morphogenetic protein receptor type-1B (BMPR1B, Homo sapiens, UniProt O00238) | cell-free assay, competition with immobilised ligand | 67 |
| RAF proto-oncogene serine/threonine-protein kinase (RAF1, Homo sapiens, UniProt P04049) | cell-free assay, competition with immobilised ligand | 100 |
| TRAF2 and NCK-interacting protein kinase (TNIK, Homo sapiens, UniProt Q9UKE5) | cell-free assay, competition with immobilised ligand | 100 |
| Serine/threonine-protein kinase 36 (STK36, Homo sapiens, UniProt Q9NRP7) | cell-free assay, competition with immobilised ligand | 100 |
| Epidermal growth factor receptor (EGFR, Homo sapiens, UniProt P00533, del747-750/T751S) | cell-free assay, competition with immobilised ligand | 97 |
| Serine/threonine-protein kinase Nek3 (NEK3, Homo sapiens, UniProt P51956) | cell-free assay, competition with immobilised ligand | 66 |
| Mast/stem cell growth factor receptor Kit (KIT, Homo sapiens, UniProt P10721, A829P) | cell-free assay, competition with immobilised ligand | 84 |
| Serine/threonine-protein kinase ULK2 (ULK2, Homo sapiens, UniProt Q8IYT8) | cell-free assay, competition with immobilised ligand | 93 |
| Casein kinase II subunit alpha (CSNK2A1, Homo sapiens, UniProt P68400) | cell-free assay, competition with immobilised ligand | 86 |

Sample 3 — observed: peptide-MHC binding; molecule type: peptide; concentration: concentration not given
Target: HLA class I histocompatibility antigen, C alpha chain, allele C*04:01 (Homo sapiens, UniProt P10321)
| Molecule | binding |
| --- | --- |
| STMPLVMAW | inactive |
| KVYWAGIEF | inactive |
| YWLNTPFLV | inactive |
| YQRALHTSI | inactive |
| YMYDFILRF | inactive |
| AEHDPWWAV | inactive |
| RQWGMGFLL | inactive |
| YPDPVIKV | inactive |

Single results of other studies
| Structure (SMILES) | target | assay | conditions | scale | quantity | result |
| --- | --- | --- | --- | --- | --- | --- |
| O=C1NC(=O)c2c1c1c3ccccc3n3c1c1c2c2ccccc2n1[C@H]1CC[C@@H]3O1 | Serine/threonine-protein kinase pim-2 (PIM2, Homo sapiens, UniProt Q9P1W9) | enzyme activity, inhibitor | 0.5 µM | baseline: control | remaining activity | 1.86% |

Excerpt of the above (sample 3):
| Molecule | binding |
| --- | --- |
| AEHDPWWAV | inactive |
| RQWGMGFLL | inactive |
| YWLNTPFLV | inactive |
| KVYWAGIEF | inactive |
